Published values pooled from the literature.
Each numbered part is a random draw from the data of one study; scales do not carry over between parts. Changes are numbered by the printed parent chain.

Set 1
Target: CCNB1, cyclin fold, Cln2 fusion (human)
Technique: yeast growth competition, sequencing
Sample: yeast
Setting: strong parent motif
Relative to: not given
Direction: higher = stronger binding
Measurement: normalised enrichment score
Starting sequence: viral docking peptide; KGVKRKLFAEDSS
KGVKRKLTAEDSS [F8T]: 0.364
KGVKRKLFAEDLS [S12L]: 2.51
KGVKRKLFAEDDS [S12D]: 3.55
KGVKRKLFAWDSS [E10W]: 0.58
KGVKCKLFAEDSS [R5C]: 1.7

Set 2
Target: UBE2A UBC core domain (UniProt P49459)
UniProt P49459, sequence (whole entry, looked up): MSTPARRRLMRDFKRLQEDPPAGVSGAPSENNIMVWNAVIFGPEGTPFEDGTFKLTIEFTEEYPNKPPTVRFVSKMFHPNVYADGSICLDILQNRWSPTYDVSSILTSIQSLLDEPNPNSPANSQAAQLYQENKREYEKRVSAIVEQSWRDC
Technique: yeast two-hybrid
Sample: yeast
Setting: mostly zero background
Relative to: not given
Direction: higher = stronger interaction
Measurement: lacZ reporter activity
B1: DTX2 RING domain (UniProt Q86UW9); chain EELKVPPDEDCIICMEKLSTASGYSDVTDSKAIGSLAVGHLTKCSHAFHLLCLLAMYCNGNKDGSLQCPSCKTIYGEKTGTQ
B2: RNF19A RING domain (UniProt Q9NV58); chain ISKQIGDFIECPLCLLRHSKDRFPDIMTCHHRSCVDCLRQYLRIEISESRVNISCPECTERFNPHDIR
B3: SYTL4 RING domain (UniProt Q96C24); chain RGSQHYSDRTCARCQESLGRLSPKTNTCRGCNHLVCRDCRIQESNGTWRCKVCAKEIELKKAT
B4: RNF121 RING domain (UniProt Q9H920); chain MPTKHLSDSVCAVCGQQIFVDVSEEGIIENTYRLSCNHVFHEFCIRGWCIVGKKQTCPYCKEKVDLKRMFS
B5: DZIP3 RING domain (UniProt Q86Y13); chain PDEEEEEEEPCVICHENLSPENLSVLPCAHKFHAQCIRPWLMQQGTCPTCRLHVLLPEEFP
B6: RBCK1 RING domain (UniProt Q9BYM8); chain SLVLNTEPAECPVCYSVLAPGEAVVLRECLHTFCRECLQGTIRNSQEAEVSCPFIDNTYSCSGKLLEREIK
B7: TRIM62 RING domain (UniProt Q9BVG3); chain MACSLKDELLCSICLSIYQDPVSLGCEHYFCRRCITEHWVRQEAQGARDCPECRRTFAEPALAP
KLRKLKEAMLCMVCCEEEINSTFCPCGHTVCCESCAAQLQSCPVCRSRVEHVQHVY (MYLIP RING domain (UniProt Q8WY64)): 0
B1 (DTX2 RING domain): 0
AVPSGLEENLCKICMDSPIDCVLLECGHMVTCTKCGKRMNECPICRQYVIRAVHVF (RFFL RING domain (UniProt Q8WZ73)): 0
B2 (RNF19A RING domain): 0
B3 (SYTL4 RING domain): 0
FDGDVDPDLKCALCHKVLEDPLTTPCGHVFCAGCVLPWVVQEGSCPARCRGRLSAKELN (PDZRN3 RING domain (UniProt Q9UPQ7)): 0
B4 (RNF121 RING domain): 0
B5 (DZIP3 RING domain): 0
B6 (RBCK1 RING domain): 0
B7 (TRIM62 RING domain): 0

Set 3
Target: Histone acetyltransferase KAT6A, winged helix 1, GST fusion (KAT6A, Homo sapiens, UniProt Q92794, residues 1-85)
Technique: protein binding microarray
Molecule type: double-stranded DNA, one strand shown
Sample: in vitro
Tested at: not given
Setting: 8-mer, flanks averaged, mean of 2 arrays, mostly near background
Relative to: not given
Direction: higher = stronger binding
Measurement: E-score
Residues (chain): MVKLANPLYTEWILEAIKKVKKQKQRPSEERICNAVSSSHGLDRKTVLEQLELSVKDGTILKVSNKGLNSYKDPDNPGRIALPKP
TATCATGA: -0.115
CAGCCCTG: -0.0933
GAATGGTA: -0.24
GCAAGGGC: 0.0701
CTATGTAA: -0.145
CCTTCGGC: 0.151
CAGGTTCG: -0.136
GTCGCCAC: 0.109

Set 4
Target: HLA class I histocompatibility antigen, A alpha chain, allele A*80:01 (Homo sapiens, UniProt P04439)
Effect on: peptide-MHC binding
Molecule type: peptide
Tested at: concentration not given
Measurement: binding
ATKDSFQSF: inactive
ALTDLGLIY: active
RLGWRTLDF: inactive
SQYDPKELL: inactive
HVIYFTAFT: inactive

Excerpt of the above (set 3):
TATCATGA: -0.115
CAGCCCTG: -0.0933
GAATGGTA: -0.24
GCAAGGGC: 0.0701
